Published values gathered from unrelated publications.
Each line is one published result; not all experiments were run side by side. Several values in a cell are separate wells, animals, samples, runs or records. Numbers after ± are the reported error.
blaNDM-1: Metallo-beta-lactamase type 2 (blaNDM-1, Klebsiella pneumoniae, UniProt C7C422)
CSNK2A1: Casein kinase II subunit alpha (CSNK2A1, Homo sapiens, UniProt P68400)
Chain of UniProt P68400 (whole entry, looked up): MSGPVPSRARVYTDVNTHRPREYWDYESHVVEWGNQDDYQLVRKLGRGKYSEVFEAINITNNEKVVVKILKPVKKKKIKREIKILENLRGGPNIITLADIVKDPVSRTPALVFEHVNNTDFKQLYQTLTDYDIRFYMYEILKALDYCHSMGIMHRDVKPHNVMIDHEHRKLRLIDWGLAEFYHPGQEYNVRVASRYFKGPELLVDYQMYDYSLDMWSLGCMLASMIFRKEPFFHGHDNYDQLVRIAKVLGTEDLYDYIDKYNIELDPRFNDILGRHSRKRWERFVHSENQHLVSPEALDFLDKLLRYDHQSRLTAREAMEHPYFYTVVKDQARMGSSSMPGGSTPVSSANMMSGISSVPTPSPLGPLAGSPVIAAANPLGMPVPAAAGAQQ
Chain of UniProt P26718 (whole entry, looked up): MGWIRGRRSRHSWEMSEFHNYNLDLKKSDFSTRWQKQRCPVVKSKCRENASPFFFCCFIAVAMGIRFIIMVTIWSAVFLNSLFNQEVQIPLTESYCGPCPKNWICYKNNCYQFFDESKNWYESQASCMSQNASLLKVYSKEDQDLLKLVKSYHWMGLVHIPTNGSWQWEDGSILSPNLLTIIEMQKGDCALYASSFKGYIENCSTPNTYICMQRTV
Chain of UniProt P25325 (whole entry, looked up): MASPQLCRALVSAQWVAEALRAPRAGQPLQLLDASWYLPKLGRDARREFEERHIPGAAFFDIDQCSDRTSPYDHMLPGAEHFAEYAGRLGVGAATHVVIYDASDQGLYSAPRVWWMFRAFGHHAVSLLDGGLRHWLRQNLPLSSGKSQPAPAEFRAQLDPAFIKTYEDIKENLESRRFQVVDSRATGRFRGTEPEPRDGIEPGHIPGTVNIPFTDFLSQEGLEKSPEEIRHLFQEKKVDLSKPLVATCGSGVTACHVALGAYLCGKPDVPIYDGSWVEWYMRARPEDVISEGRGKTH
Chain of UniProt P53350 (whole entry, looked up): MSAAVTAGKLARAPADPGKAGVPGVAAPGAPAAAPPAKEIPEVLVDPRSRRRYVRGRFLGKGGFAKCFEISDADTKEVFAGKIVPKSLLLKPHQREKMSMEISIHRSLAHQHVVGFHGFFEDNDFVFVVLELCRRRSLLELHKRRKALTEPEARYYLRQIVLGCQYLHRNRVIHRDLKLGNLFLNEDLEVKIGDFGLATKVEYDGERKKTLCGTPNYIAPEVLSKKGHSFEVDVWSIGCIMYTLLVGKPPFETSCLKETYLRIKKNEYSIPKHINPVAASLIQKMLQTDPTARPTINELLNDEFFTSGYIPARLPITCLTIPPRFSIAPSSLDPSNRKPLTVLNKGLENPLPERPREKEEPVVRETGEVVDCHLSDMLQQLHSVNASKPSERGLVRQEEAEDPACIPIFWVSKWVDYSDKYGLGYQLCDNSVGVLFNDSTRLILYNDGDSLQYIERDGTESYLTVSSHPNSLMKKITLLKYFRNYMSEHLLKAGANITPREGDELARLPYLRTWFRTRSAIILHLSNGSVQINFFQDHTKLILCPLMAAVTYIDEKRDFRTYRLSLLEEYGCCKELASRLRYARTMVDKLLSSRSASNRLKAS
Chain of UniProt P0AC78 (whole entry, looked up): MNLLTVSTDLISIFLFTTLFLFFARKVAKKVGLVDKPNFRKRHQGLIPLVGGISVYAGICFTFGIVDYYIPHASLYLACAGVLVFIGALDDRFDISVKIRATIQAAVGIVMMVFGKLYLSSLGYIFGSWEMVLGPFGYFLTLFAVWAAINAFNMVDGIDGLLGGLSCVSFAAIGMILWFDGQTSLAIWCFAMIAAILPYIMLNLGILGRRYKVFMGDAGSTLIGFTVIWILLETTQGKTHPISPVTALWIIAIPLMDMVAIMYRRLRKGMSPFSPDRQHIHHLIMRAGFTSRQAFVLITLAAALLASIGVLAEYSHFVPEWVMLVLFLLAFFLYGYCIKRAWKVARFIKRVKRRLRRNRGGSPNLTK
Chain of UniProt P40261 (whole entry, looked up): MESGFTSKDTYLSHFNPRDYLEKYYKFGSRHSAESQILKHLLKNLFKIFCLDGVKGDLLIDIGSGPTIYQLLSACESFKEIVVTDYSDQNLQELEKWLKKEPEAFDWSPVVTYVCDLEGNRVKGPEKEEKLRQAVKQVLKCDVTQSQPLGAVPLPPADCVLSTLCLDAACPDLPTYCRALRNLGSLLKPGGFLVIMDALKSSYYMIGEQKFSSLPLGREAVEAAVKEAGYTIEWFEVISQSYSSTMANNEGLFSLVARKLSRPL
Chain of UniProt P30969 (whole entry, looked up): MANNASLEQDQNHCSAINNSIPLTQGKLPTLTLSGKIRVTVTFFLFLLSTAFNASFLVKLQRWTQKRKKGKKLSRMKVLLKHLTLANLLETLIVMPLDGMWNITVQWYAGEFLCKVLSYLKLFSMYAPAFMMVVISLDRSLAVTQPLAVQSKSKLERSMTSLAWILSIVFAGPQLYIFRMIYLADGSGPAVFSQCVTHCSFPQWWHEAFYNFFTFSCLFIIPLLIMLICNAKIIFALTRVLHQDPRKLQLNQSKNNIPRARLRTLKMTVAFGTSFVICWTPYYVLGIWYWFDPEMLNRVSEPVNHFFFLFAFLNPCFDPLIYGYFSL
Chain of UniProt P11712 (whole entry, looked up): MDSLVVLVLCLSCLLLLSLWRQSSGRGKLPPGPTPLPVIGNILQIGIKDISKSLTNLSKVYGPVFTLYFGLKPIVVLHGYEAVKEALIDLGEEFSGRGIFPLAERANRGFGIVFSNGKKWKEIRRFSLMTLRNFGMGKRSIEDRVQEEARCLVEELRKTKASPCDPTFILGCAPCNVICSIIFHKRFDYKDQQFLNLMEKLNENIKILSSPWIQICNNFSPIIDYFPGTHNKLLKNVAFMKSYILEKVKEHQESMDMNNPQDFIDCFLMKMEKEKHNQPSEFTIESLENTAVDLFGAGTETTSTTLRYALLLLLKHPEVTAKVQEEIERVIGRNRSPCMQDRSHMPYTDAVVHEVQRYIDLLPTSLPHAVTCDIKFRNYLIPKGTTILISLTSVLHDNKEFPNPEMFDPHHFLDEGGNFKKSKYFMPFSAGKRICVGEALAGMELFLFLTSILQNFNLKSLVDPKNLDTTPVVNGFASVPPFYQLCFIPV
Chain of UniProt P28074 (whole entry, looked up): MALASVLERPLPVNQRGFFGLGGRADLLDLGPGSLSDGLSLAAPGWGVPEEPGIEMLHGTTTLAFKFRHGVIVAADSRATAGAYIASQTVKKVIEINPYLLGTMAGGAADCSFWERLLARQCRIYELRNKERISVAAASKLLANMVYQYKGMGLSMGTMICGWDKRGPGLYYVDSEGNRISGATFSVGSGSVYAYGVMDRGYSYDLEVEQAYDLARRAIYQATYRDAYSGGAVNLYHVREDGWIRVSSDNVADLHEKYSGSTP
Chain of UniProt Q9FIP9 (whole entry, looked up): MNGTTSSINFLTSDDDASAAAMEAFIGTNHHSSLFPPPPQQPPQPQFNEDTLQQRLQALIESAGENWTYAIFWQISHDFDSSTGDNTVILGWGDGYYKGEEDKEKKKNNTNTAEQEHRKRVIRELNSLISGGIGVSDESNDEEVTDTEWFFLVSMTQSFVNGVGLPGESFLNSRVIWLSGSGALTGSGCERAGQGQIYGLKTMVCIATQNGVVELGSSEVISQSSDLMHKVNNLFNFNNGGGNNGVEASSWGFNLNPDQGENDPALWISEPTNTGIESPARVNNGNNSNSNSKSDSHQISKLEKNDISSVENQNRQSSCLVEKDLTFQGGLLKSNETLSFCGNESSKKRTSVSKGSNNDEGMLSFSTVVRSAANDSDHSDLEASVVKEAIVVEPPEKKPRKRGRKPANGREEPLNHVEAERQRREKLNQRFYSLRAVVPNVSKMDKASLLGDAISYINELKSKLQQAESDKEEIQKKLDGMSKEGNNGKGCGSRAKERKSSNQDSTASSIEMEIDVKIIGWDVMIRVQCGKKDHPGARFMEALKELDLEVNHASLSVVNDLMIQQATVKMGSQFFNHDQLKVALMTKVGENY
Chain of UniProt P30101 (whole entry, looked up): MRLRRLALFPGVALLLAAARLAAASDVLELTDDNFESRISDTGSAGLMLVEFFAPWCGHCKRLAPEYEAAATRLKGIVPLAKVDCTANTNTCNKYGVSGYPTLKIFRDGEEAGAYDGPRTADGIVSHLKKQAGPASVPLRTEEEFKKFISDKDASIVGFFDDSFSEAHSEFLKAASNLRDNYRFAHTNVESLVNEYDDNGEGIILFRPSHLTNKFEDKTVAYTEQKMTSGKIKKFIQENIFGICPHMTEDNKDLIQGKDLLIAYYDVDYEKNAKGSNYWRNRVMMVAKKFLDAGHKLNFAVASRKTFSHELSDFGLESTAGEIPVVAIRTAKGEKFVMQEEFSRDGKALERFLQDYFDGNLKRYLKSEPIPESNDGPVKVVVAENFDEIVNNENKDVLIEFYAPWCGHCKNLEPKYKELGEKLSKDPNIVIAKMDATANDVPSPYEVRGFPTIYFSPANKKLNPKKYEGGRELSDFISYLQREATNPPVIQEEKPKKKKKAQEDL
Chain of UniProt P55212 (whole entry, looked up): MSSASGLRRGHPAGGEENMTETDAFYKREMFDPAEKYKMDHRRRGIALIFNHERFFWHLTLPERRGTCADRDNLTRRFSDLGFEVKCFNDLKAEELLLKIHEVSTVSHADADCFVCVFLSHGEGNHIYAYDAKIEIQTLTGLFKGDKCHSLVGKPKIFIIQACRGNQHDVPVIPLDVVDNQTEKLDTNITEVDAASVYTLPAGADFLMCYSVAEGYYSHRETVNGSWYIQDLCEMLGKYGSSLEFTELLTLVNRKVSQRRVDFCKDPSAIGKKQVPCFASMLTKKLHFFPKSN
Chain of UniProt P63104 (whole entry, looked up): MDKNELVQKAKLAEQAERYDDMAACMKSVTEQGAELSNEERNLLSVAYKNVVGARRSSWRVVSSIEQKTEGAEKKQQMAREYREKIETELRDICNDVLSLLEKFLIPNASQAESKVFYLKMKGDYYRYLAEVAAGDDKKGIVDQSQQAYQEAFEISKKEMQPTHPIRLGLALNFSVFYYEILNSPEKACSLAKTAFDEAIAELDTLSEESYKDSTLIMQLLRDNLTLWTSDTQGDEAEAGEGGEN

COc1nn(-c2ccc(NC(=O)CON)cc2)c(=O)o1  IC50 (Fluorophosphonate-binding hydrolase B (Staphylococcus aureus, UniProt Q2FV90)): 36 µM and > 20 µM
O=C(CCS)Nc1cccc(-c2nn[nH]n2)c1  IC50 (blaNDM-1; enzyme activity, inhibitor, fluorescence; with preincubation): 6.1 µM
COC(=O)C1CN1S(=O)(=O)c1ccc(F)cc1F (stereo not shown)  IC50 (PDIA3 (Homo sapiens, UniProt P30101); enzyme activity, inhibitor, absorbance; pH 7.6): 113 µM
COc1cc2c(cc1O)oc(=O)c1c3cc(O)c(O)cc3oc21  IC50 (Genome polyprotein, NS5B polymerase (Hepatitis C virus genotype 1b, UniProt P26663); NS5B RNA polymerase activity, inhibitor; hepatitis C virus, genotype 1b; with: poly(rA)/U12): 18.5 µM
CCCC[C@@H]1NC(=O)[C@H](Cc2ccccc2)NC(=O)CNC(=O)[C@H](NC(=O)[C@@H](N)Cc2ccc(O)cc2)C(C)(C)SSC(C)(C)[C@@H](C(=O)N[C@@H](Cc2c[nH]c3ccccc23)C(=O)NCc2cc(C(F)(F)F)cc(C(F)(F)F)c2)NC(=O)[C@@H]2CCCN2C1=O  IC50 (Oprm1 (Rattus norvegicus, UniProt P33535)): 3.72 µM
COc1cc(/C=C(\C#N)C(=O)Nc2nnc(C(F)(F)F)s2)ccc1OC(=O)N1CCN(C(=O)CCCC(=O)NCCCC[C@@H]2NC(=O)[C@@H](Cc3ccc(O)cc3)NC(=O)[C@H](CC(=O)O)NC(=O)CNC(=O)[C@H](CCCNC(=N)N)NC2=O)CC1  IC50 (CSNK2A1; enzyme activity, inhibitor; with: ATP 25 µM, casein): 63.8 µM
CC[C@@H]1C(=O)N(C)c2cnc(Nc3ccc(C(=O)NCCCC[C@H](NC(C)=O)C(=O)N4CCC[C@H]4C(=O)N[C@@H](CC(C)C)C(=O)N[C@@H](Cc4cncn4CCCCCCCCc4ccccc4)C(=O)N[C@@H](CO)C(=O)N[C@H](C(N)=O)[C@@H](C)OP(=O)(O)O)cc3OC)nc2N1C1CCCC1  IC50 (PLK1 (Homo sapiens, UniProt P53350); enzyme activity, inhibitor): 0.0036 ± 0.00035 µM
CC12CC(c3ccoc3)OC(=O)C1(O)CCC1(C)C2C2OC(=O)C1(O)C1OC21 (stereo not shown)  IC50 (Ache (Rattus norvegicus, UniProt P37136); enzyme activity, inhibitor, Ellman): 120 µM
CC(C)C[C@H](NC(=O)[C@H](CCCNC(=N)N)NC(=O)[C@H](CCC(=O)O)NC(=O)[C@H](CCCCN)NC(=O)[C@H](CCCNC(=N)N)NC(=O)[C@H](CCCCN)NC(=O)[C@]1(C)CCCC=CCCC[C@](C)(NC(=O)[C@H](CC(C)C)NC(=O)[C@H](CO)NC(=O)[C@]2(C)CCCC=CCCC[C@](C)(NC(=O)[C@@H]3CCCN3C(=O)[C@@H](NC(=O)[C@H](CO)NC(=O)c3ccc4c(c3)C(=O)OC43c4ccc(N(C)C)cc4Oc4cc(N(C)C)ccc43)C(C)C)C(=O)N[C@@H](C)C(=O)N[C@@H](CCCNC(=N)N)C(=O)N[C@@H](CCCCN)C(=O)N2)C(=O)N[C@@H](CCCNC(=N)N)C(=O)N[C@@H](Cc2ccccc2)C(=O)N[C@@H](CC(C)C)C(=O)N1)C(=O)O  IC50 (Transcription factor MYC3 (MYC3, Arabidopsis thaliana, UniProt Q9FIP9); JAZ9 peptide binding, inhibitor, AlphaScreen; pH 8.0, 25 °C, with: 50 nM biotin-JAZ9 peptide): 2.2 ± 0.5 µM
O=C(COc1ccc2c(c1O)C(=O)c1ccccc1C2=O)c1ccccc1  IC50 (Gag-Pol polyprotein, reverse transcriptase RNase H (gag-pol, Human immunodeficiency virus 1, UniProt P03366, Y780C); polymerase-independent RNase H cleavage; Y181C reverse transcriptase): > 100 µM
CC(=O)N[C@@H](CCCNC(=N)N)C(=O)N[C@H](C(=O)N1CCC[C@H]1C(=O)N[C@@H](COP(=O)(O)O)C(=O)N[C@@H](CC(C)C)C(=O)N1CCC[C@H]1C(=O)N[C@@H](C(=O)N1CCC[C@H]1C(c1ccccc1)c1ccccc1)C(C)C)[C@@H](C)O  IC50 (YWHAZ (Homo sapiens, UniProt P63104); peptide binding, inhibitor, competitive fluorescence polarization; 10 µM protein, with: 100 nM FAM-labelled diphosphorylated Tau peptide): 7.6 µM
CNC(=O)c1ccc(-c2cnn3ccc(C(=O)Nc4ccc(C#N)cn4)cc23)cc1  IC50 (Phosphatidylinositol 4-kinase (Cryptosporidium parvum, UniProt Q5CVD3); enzyme activity; with: ATP 3 µM): > 10 µM
CC[N+](CC)(CC)CC  IC50 (Potassium channel protein kcv, three L70A, one L70Y (A250R, Paramecium bursaria Chlorella virus 1, UniProt Q84568, L70A/L70Y)): 16000 ± 3000 µM
CN(C)C(=O)[C@@H](NC(=O)c1cnccc1-c1ccc(C(F)(F)F)cc1)c1cc(Cl)cc(C(F)(F)F)c1  IC50 (NKG2-D type II integral membrane protein, with MICA (KLRK1, Homo sapiens, UniProt P26718); ligand binding, inhibitor, TR-FRET; HEK293 expressing NKG2D and DAP10; with: MICA-Alexa647): 0.1 ± 0.03 µM
c1cc2c(cc1[C@H]1OC[C@@H]3[C@H]1CO[C@H]3c1ccc3c(c1)OCO3)OCO2  IC50 (MPST (Homo sapiens, UniProt P25325); enzyme activity, inhibitor): 19.1 µM
Nc1ncnc2c1ncn2[C@@H]1O[C@H](CSCCNC(=O)NCCc2ccccc2)[C@@H](O)[C@H]1O  IC50 (Actin-histidine N-methyltransferase (SETD3, Homo sapiens, UniProt Q86TU7); enzyme activity, inhibitor, radiometric): > 50 µM
NC[C@@H]1O[C@H](O[C@H]2[C@@H](O)[C@H](O[C@@H]3[C@@H](O)[C@H](N)C[C@H](N)[C@H]3O[C@H]3O[C@H](CN)[C@@H](O)[C@H](O)[C@H]3N)O[C@@H]2Cn2cc(COCCCCCCCCOCc3cn(C[C@H]4O[C@@H](O[C@@H]5[C@@H](O)[C@H](N)C[C@H](N)[C@H]5O[C@H]5O[C@H](CN)[C@@H](O)[C@H](O)[C@H]5N)[C@H](O)[C@@H]4O[C@H]4O[C@@H](CN)[C@@H](O)[C@H](O)[C@H]4N)nn3)nn2)[C@H](N)[C@@H](O)[C@@H]1O  IC50 (HIV-1 TAR RNA; Tat peptide binding, FRET competition; pH 7.4, 25 °C): 0.061 ± 0.013 µM
C#CCCC(=O)N[C@H]1CSCc2ccccc2CSCCNC(=O)[C@H](CCC(=O)O)NC(=O)[C@H](Cc2ccccc2)NC(=O)[C@@H]2CCCN2C(=O)[C@H](CC(N)=O)NC1=O  IC50 (EH domain-containing protein 1, EH domain (Homo sapiens, UniProt Q9H4M9)): 76.5 ± 4.6 µM
COC1C(C(OC2OC(C(=O)NC3CCCCNC3=O)=CC(O)C2O)C(N)=O)OC(n2ccc(=O)[nH]c2=O)C1OC (stereo not shown)  IC50 (Undecaprenyl-phosphate alpha-N-acetylglucosaminyl 1-phosphate transferase (wecA, Escherichia coli, UniProt P0AC78)): 0.035 ± 9.14 µM
O=C1C=C(Br)/C(=C/Br)O1  IC50 (lasR (Pseudomonas aeruginosa, UniProt P25084); reporter gene, antagonist; PAO-JP2 plasI-LVAgfp; with: OdDHL 150 nM): no inhibition
CC(=O)N[C@@H](CC(C)C)C(=O)N[C@@H](CCC(=O)O)C(=O)N[C@@H](CO)C(=O)N[C@@H](CC(=O)O)C(=O)CCl  IC50 (Caspase-6 (CASP6, Homo sapiens, UniProt P55212); enzyme activity, inhibitor, fluorescence): 5.08 µM
CCCn1nnc(-c2ccccc2NC(=O)[C@H](C)CS)n1  IC50 (Metallo-beta-lactamase type 2 (Serratia marcescens, UniProt P52699); enzyme activity, inhibitor, fluorescence; 10 min preincubation, with: FC5): 0.879 µM
CCNCCN(C)c1ccc(Nc2cc(NC3CC3)n3ncc(C#N)c3n2)cc1NC(=O)CC  IC50 (CSNK2A1; target engagement in cells, BRET): 0.02 µM
CC[C@H](C)[C@@H]1NC(=O)[C@H](C)NC(=O)[C@H](Cc2ccc(O)cc2)NC(=O)[C@H](CCCCN)NC(=O)[C@H](CCCCN)NC(=O)CNC(=O)[C@H](C)NC(=O)[C@H]([C@@H](C)CC)NC(=O)[C@H]([C@@H](C)CC)NC(=O)[C@H](Cc2ccccc2)NC(=O)[C@H](CC(C)C)NC(=O)[C@H](Cc2ccc(O)cc2)NC(=O)[C@H](CCCNC(=N)N)NC(=O)[C@@H](Cc2ccc(O)cc2)NC(=O)CSC[C@@H](C(=O)NCC(N)=O)NC(=O)[C@H](CCCNC(=N)N)NC(=O)[C@H](C(C)C)NC1=O  IC50 (NNMT (Homo sapiens, UniProt P40261); enzyme activity, inhibitor, mass spectrometry): 7.06 µM
C[C@H](CS)C(=O)Nc1ccccc1-c1nnn(Cc2ccccc2)n1  IC50 (blaNDM-1; enzyme activity, inhibitor, fluorescence; with preincubation): 1.46 µM
Cc1ccc2nc(C(F)(F)F)c(C(=O)NCc3cccc(Cl)c3)n2c1  IC50 (Cytochrome P450 2C9 (CYP2C9, Homo sapiens, UniProt P11712); inhibitor): 3.1 µM
CC[C@H](C)[C@@H]1NC(=O)[C@H](CC(C)C)NC(=O)CNC(=O)[C@H](CCCNC(=N)N)NC(=O)[C@H](Cc2c[nH]c3ccccc23)NC(=O)[C@H](CCSC)NC(=O)[C@H](CO)NC(=O)[C@H](CCC(=O)O)NC(=O)[C@H](Cc2ccccc2)NC(=O)[C@H](CC(=O)O)NC(=O)[C@H]([C@@H](C)O)NC(=O)CNC(=O)[C@H](CCC(=O)O)NC(=O)[C@H]([C@@H](C)O)NC(=O)CNC(=O)[C@H](CC(=O)O)NC1=O  IC50 (MDM2 (Homo sapiens, UniProt Q00987); protein-protein interaction, inhibitor, AlphaScreen): 0.338 µM
C=C(NC(=O)C(=C)NC(=O)c1csc(C2=NC3c4csc(n4)C4NC(=O)c5csc(n5)C(C(C)(O)C(C)O)NC(=O)C5CSC(=N5)C(=CC)NC(=O)C(C(C)O)NC(=O)c5csc(n5)C3(CC2)NC(=O)C(C)NC(=O)C(=C)NC(=O)C(C(C)CC)NC2C=Cc3c(C(C)O)cc(nc3C2O)C(=O)OC4C)n1)C(N)=O (stereo not shown)  IC50 (PSMB5 (Homo sapiens, UniProt P28074); chymotrypsin-like activity, inhibitor; purified human 20S proteasome; 37 °C, 15 min preincubation, with: Suc-Leu-Leu-Val-Tyr-AMC): 6.3 ± 0.4 µM
CC(=O)N[C@@H](CCCNC(=N)N)C(=O)N[C@@H](Cc1ccc(O)cc1)C(=O)N[C@@H](CCCNC(=N)N)C(=O)N[C@@H](CC(C)C)C(=O)N[C@@H](CCCNC(=N)NC(=O)NCCCCN)C(=O)N[C@@H](Cc1ccc(O)cc1)C(N)=O  IC50 (NPY4R (Homo sapiens, UniProt P50391); β-arrestin 1 recruitment, antagonist; HEK293T; with: 3 nM human pancreatic polypeptide): 6.64 ± 0.78 µM
N#Cc1cn([C@@H]2O[C@H](CSCC[C@H](N)C(=O)O)[C@@H](O)[C@H]2O)c2ncnc(N)c12  IC50 (DNA (cytosine-5)-methyltransferase 3B, with DNMT3L (DNMT3B, Homo sapiens, UniProt Q9UBC3); inhibitor): 0.03 ± 0.006 µM
CC(C)C[C@H](NC(=O)[C@H](C)NC(=O)[C@H](CO)NC(=O)[C@H](CC(=O)O)NC(=O)[C@@H](N)CCC(=O)O)C(=O)N[C@@H](CC(C)C)C(=O)N[C@@H](CCC(=O)O)C(=O)N[C@@H](CC(=O)O)C(=O)N1CCC[C@H]1C(=O)N[C@@H](C)C(=O)NCC(=O)N[C@H](C(=O)O)[C@@H](C)O  IC50 (HLA-DRA/HLA-DRB3 (Homo sapiens, UniProt P01903+P79483); binding, competition binding; purified HLA-DR; 48 h, with: radiolabelled probe peptide 0.1-1 nM): > 5 µM
Cc1c(C(=O)CC2OC(=O)C(Cl)=C2Cl)sc2ccc(Cl)cc12 (stereo not shown)  IC50 (Genome polyprotein, 3C protease (Human hepatitis A virus genotype IB, UniProt P08617); enzyme activity, inhibitor): 54 ± 16 µM
CN(C)C(=O)[C@H]1NC(=O)c2cnccc2-c2ccc(cc2)C(F)(F)CCCC(F)(F)c2cccc1c2  IC50 (NKG2-D type II integral membrane protein, with ULBP6 (KLRK1, Homo sapiens, UniProt P26718); ligand binding, inhibitor, TR-FRET; HEK293 expressing NKG2D and DAP10; with: ULBP6-AF647): 4.5 ± 0.5 µM
CC(C)C[C@H](NC(=O)[C@@H](CCCNC(=N)N)NC(=O)[C@H](Cc1c[nH]cn1)NC(=O)[C@H](CO)NC(=O)[C@H](Cc1c[nH]c2ccccc12)NC(=O)[C@H](Cc1c[nH]cn1)NC(=O)[C@@H]1CCC(=O)N1)C(=O)N[C@@H](CCCNC(=N)N)C(=O)N1CCC[C@H]1C(=O)NCC(N)=O  IC50 (Gonadotropin-releasing hormone receptor (Rattus norvegicus, UniProt P30969); ligand displacement in cells, radioligand): 0.0223 µM
